Results of several laboratories.
Protocols differ between the studies behind these lines.

Structure (SMILES) | assay | test system | conditions | measurement | result
Cc1cc(-c2nccc3c2ccn3CC(=O)Nc2ccc(-c3cnccn3)cn2)ccn1 | – | human | 5 mg once daily, multiple ascending dose | subjects with Dysgeusia adverse event | 0%
CNC(=O)c1ccc(-c2cnc3ncc(Cc4ccc5ncccc5c4)n3n2)cc1F | item: adverse events of grade 1 or higher | healthy human subjects | oral, 200 mg, inhibition cohort, all-causality, with: itraconazole 200 mg/day | subjects with adverse events | 70.4%
C[C@@H](c1nc(-c2ccc(C#N)cc2)cs1)[C@](O)(Cn1cncn1)c1cc(F)ccc1F | nervous system disorders | human | oral, dose not given, with: ethinyl estradiol/norethindrone | subjects with adverse event | 8.7%
CC(C)(C(=O)N1CCOc2c(C#N)cncc2C1)C(F)F | item: nervous system disorders | healthy humans, both sexes | oral, 20 mg single dose | subjects with TEAE | 16.7%
CC(C)n1c(Nc2cccnc2)nc2cnc(Nc3ccc(N4CCN(C)CC4)cc3)nc21 | item: metabolism and nutrition disorders (SOC) | healthy human, male | oral, dose not given, CTCAE grade 1-3 | subjects with TEAE | 16.7%
CN1CCN(c2cccc3c2CCN(C(=O)/C=C/c2c(-n4cnnn4)ccc(Cl)c2F)[C@@H]3C(=O)Nc2ccc(C(=O)O)cc2)C(=O)C1 | – | healthy human subjects | intravenous infusion, 1 mg/h, 5 days | subjects with any adverse event | 22.2%
C[C@@H](Oc1ccc(S(C)(=O)=O)cc1C(=O)N1C[C@@H]2C[C@]2(c2cc(C(F)(F)F)on2)C1)C(F)(F)F | – | human | oral plus intravenous microtracer, dose not given | subjects with abdominal pain | 16.7%
C[C@H]1CN(C(=O)CC#N)[C@]12CCN(c1ncnc3[nH]ccc13)C2 | – | healthy human | oral, 3 mg single | subjects with catheter site bruise | 0%

Repeated from above:
Structure (SMILES) | assay | test system | conditions | measurement | result
C[C@H]1CN(C(=O)CC#N)[C@]12CCN(c1ncnc3[nH]ccc13)C2 | – | healthy human | oral, 3 mg single | subjects with catheter site bruise | 0%
